Measured values gathered from unrelated publications.
A part holds a random share of what one study measured. Changes are numbered by the printed parent chain.

Study 1 — target: CCND3, cyclin fold, Cln2 fusion (human); method: yeast growth competition, sequencing; medium: yeast; notes: weak parent motif; baseline: not given; reading: higher = stronger binding
Starting sequence: E2F1 docking peptide (human); PPVKRRLDLETDH
| Variant | normalised enrichment score |
| --- | --- |
| PPVKRRLDLEWDH [T11W] | 0.181 |
| PPFKRRLDLETDH [V3F] | 0.157 |
| PPVKWRLDLETDH [R5W] | 0.104 |
| PPVYRRLDLETDH [K4Y] | 0.131 |
| PPVKRRLDLEADH [T11A] | 0.0923 |
| APVKRRLDLETDH [P1A] | 0.138 |
| PPVKRRNDLETDH [L7N] | 0.115 |
| PPVKRRKDLETDH [L7K] | 0.119 |
| PPVKRRLHLETDH [D8H] | 0.0228 |
| PPVKRRLDLEGDH [T11G] | 0.0399 |
| PPVKRRLDLETSH [D12S] | 0.0788 |
| PPVKRRLDLETDR [H13R] | 0.117 |
| PPVKRRLDLEFDH [T11F] | 0.158 |
| PPSKRRLDLETDH [V3S] | 0.166 |
| PPVKRCLDLETDH [R6C] | 0.133 |
| PPVKRRLDLATDH [E10A] | 0.179 |
| PPRKRRLDLETDH [V3R] | 0.178 |
| GPVKRRLDLETDH [P1G] | 0.106 |
| PPVKRRLDLETMH [D12M] | 0.0949 |
| PKVKRRLDLETDH [P2K] | 0.0459 |

Study 2 — method: DHFR PCA, deep sequencing; medium: yeast; added: (+)-ABA 200 µM; baseline: wild-type fitted maximum; reading: higher = stronger binding
Target: ABI1, truncated, D143A, DHFR fusion (Arabidopsis thaliana)
Notes: methotrexate growth selection, single substitutions
Starting sequence: PYL1, truncated, DHFR fusion (Arabidopsis thaliana); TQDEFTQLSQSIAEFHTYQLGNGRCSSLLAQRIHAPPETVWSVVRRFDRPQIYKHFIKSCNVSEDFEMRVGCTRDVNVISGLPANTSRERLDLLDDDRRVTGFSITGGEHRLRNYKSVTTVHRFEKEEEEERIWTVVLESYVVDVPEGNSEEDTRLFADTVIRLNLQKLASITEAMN
| Variant | relative binding score |
| --- | --- |
| Q167G | 91.7% |
| D95P | -10.3% |
| N22R | 99.7% |
| V143T | 93.9% |
| N22F | 99.8% |
| S87R | 25.2% |
| L82I | 99.2% |
| V137A | 49.2% |
| G102I | 40.9% |
| V118K | 93.4% |
| P83T | 16.5% |
| I33K | 0.181% |
| I52M | 100% |
| D159Q | 64.3% |
| L164H | 99.1% |
| N165H | 50.3% |
| A170R | 99.4% |
| K58A | 101% |
| K54V | 4.89% |
| Y115F | 98.4% |
| H16D | 5.74% |

Study 3 — method: protein-binding microarray; form: double-stranded DNA, one strand shown; medium: in vitro; concentration: 2200 nM top; notes: 60-bp whole probe; added: salmon DNA 0.4 mg/ml; baseline: random background probes; reading: higher = stronger binding; all sequences stand within: GCCTAGCAC … GTCTTGATTCGCTTGACGCTGCTG
Target: Interferon regulatory factor 7, full length, phosphomimetic (IRF7, Homo sapiens, UniProt Q92985, residues 1-503, S471D/S472D/S475D/S476D/S477D/S483D/S484D/S487D)
UniProt Q92985, sequence (whole entry, unmodified, looked up): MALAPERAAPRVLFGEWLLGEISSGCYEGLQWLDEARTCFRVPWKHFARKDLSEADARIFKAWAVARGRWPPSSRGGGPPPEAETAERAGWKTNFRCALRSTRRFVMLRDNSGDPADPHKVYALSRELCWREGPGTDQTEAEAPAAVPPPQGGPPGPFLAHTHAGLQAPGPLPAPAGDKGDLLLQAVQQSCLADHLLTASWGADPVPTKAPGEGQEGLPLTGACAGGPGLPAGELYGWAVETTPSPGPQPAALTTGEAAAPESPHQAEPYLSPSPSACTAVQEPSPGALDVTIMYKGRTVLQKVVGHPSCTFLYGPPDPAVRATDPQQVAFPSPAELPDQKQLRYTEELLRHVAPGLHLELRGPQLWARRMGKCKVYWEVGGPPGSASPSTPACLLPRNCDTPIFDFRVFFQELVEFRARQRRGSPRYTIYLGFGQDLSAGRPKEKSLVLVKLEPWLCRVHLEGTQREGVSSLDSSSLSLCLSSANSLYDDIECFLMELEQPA
| Strand | fitted relative affinity [z-score] |
| --- | --- |
| TTAGGTTCCGGTTTCTGTTAGTGCTAG | 5.22 |
| ATTAGTATGTTCACTATTTAAGTGCTA | 0.497 |
| GACGGTATCGAAACTGGGGACGTGCTA | 0.938 |
| GACGGACTGGGTCTCGAGACGTGCTAG | -0.722 |
| GACGGACTGGACTCTCGGGACGTGCTA | -0.803 |
| TTAGGACTGGGTTTCGATTAGTGCTAG | 2.67 |
| TTAGAATTCGGGTATCGATTAGTGCTA | 0.393 |
| TAAGTTTCACTTTCCAAAGCGTGCTAG | 9.09 |
| GACGGTCTCGGTTTCGTGACGTGCTAG | 2.7 |
| TTAGGTCTCGGTTTCAGTTAGTGCTAG | 2.84 |
| TTAGATATCGGATTTCGATTAGTGCTA | 1.48 |
| GACGGTCTCCTTTTCCGGACGTGCTAG | 1.38 |
| TCCAGCCTGTTTCCAGCAGGGTGCTAG | 0.0763 |
| CTTAGTATTTTTTTCCAGAGGTGCTAG | 1.02 |
| GACGATTTCAGGCTCGAGACGTGCTAG | 0.457 |
| GAAGGTATCCTTCTCCTGACGTGCTAG | 0.665 |
| TCAGCTTCCTCTTTCACACTGTGCTAG | 3 |
| TATTTTTTTGTAATCGAAATGTGCTAG | 0.78 |
| TTAGATTTCGGGCTTCGATTAGTGCTA | 1.1 |

Study 4 — method: competition protein-binding microarray; form: double-stranded DNA, one strand shown; medium: in vitro; concentration: 2 µM; added: Pho4 competitor, 0.05 µM; reading: higher = stronger binding; all sequences stand within: … GTCTTGATTCGCTTGACGCTGCTG
Target: Centromere-binding protein 1, full length, His-tagged (CBF1, Saccharomyces cerevisiae, UniProt P17106, residues 1-351)
UniProt P17106, sequence (whole entry, looked up): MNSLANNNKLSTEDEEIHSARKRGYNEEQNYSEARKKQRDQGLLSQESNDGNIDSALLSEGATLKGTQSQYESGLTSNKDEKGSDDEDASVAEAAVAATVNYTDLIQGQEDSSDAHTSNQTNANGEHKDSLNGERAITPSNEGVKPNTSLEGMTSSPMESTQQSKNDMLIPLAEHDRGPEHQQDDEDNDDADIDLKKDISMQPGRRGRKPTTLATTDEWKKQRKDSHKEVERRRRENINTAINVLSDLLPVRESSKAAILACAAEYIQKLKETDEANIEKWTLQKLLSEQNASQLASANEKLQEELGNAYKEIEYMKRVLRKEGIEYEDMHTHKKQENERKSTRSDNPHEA
Notes: whole 60-bp probe, lowest competitor level
| Strand | fluorescence intensity [a.u.] |
| --- | --- |
| TATGGGTTGTGAAGTCACGTGGTTTGGGTTCAAATC | 13300 |
| TTTATTTATTGAATTCACGTGTTGATGTTTTTTTCA | 1540 |
| AGAGCGTTCGCGTTTCTCGTGCCGAGTGCTTTTAAC | 76.1 |
| AGTATAGGGCATTTAAAGGTGTGCCAGCAGCGGGTT | 67.9 |
| AAAAGCATTCTTTGTCACGTGCCAGGGTTTGCTCCT | 7300 |
| TTTTCCGCCGCAATTTTCGTGACGGATGTCGTTCAG | 67.2 |
| GACACATTTGCCAAACACATGACAGAAGTGGCAATG | 401 |
| CTTCTGTAAATTTGTCGGGTGGGTGGACGCGCCCCG | 69.3 |
| GGCAATAGGCTTTCTCTCGTGCTGTACCCCTAATGT | 65.5 |
| ATTCTGGGATGCCCTGTCGTGGGTACAGTTGCCACA | 60.1 |
| TGCGTTTGGTAGTCGCGCGTGAATATGCTAATTGGG | 69.4 |
| TATTCAAGATCCTGCAACGTGCCAGGGACTCTCAAT | 100 |
| CTTCTGTAAATTTTCCACGTGTTTTGACGCGCCCCG | 737 |
| TCAAGGCAAACGGGACATGTGGGGAGTTCGACTTTT | 64.7 |
| TAGCAACGGAGAAAGCACGCTTGTAGAACCAACCTT | 80.6 |
| TCAAACAAGATAGCGTTCGTGACAAAAGGGAGATGG | 67.9 |
| CTTTCCCGATCTTGTCCAGTGGGTGTAGCACATTTG | 81.8 |
| GTCTTGTCTCATTGGCACGTGTTTTTCCCCACTTCA | 1950 |

For quick reference, copied from above (study 4):
| Strand | fluorescence intensity [a.u.] |
| --- | --- |
| TCAAGGCAAACGGGACATGTGGGGAGTTCGACTTTT | 64.7 |
| TAGCAACGGAGAAAGCACGCTTGTAGAACCAACCTT | 80.6 |
| TCAAACAAGATAGCGTTCGTGACAAAAGGGAGATGG | 67.9 |
| CTTTCCCGATCTTGTCCAGTGGGTGTAGCACATTTG | 81.8 |
| GTCTTGTCTCATTGGCACGTGTTTTTCCCCACTTCA | 1950 |
